Results of several laboratories.
Numbers after ± are the reported error.

SMILES | target or system | test | system | setting | how to read | endpoint | result
OC[C@H]1O[C@@H](O[C@H]2[C@H](O)[C@@H](O)C(O)O[C@@H]2CO)[C@H](O)[C@@H](O)[C@H]1O (mixture of isomers) | THP-1 | pyroptotic LDH release | – | 2 µM, 40 min, added: LPS then nigericin | – | inhibition | 3.95%
COc1cc2c3c(n(CCCNC(C)C)c(=O)c2cc1OC)-c1nc2c(cc1C3=O)OCO2 | – | – | male CD1 mouse, plasma | oral, 10 mg/kg | – | dose-normalized AUC(0-t) | 64.3 ng·h/mL
Cc1nc(-c2cnc(NC(C)C)n(C)c2=O)ccc1Oc1ccnc(-c2cnn(C)c2)c1 | – | – | dog (Beagle, male), plasma | intravenous, 1 mg/kg | – | Vz | 1.33 L/kg
C[C@H]1CN(c2n[nH]c3nc(N[C@H]4CC[C@H](NS(=O)(=O)CCC(F)(F)F)CC4)ncc23)CCO1 | – | – | male Han Wistar rat | oral, 1000 mg/kg/day, 7 days | reference: vehicle | alkaline phosphatase activity | 1.32 fold
C=CC(=O)N1CCC(c2ccc(C(N)=O)c(-c3ccc(Oc4ccccc4)cc3)n2)CC1 | – | CTCAE 4.03 | patients with relapsed/refractory MCL | oral, 150 mg once daily | – | incidence of grade ≥3 TRAEs | 12.5%
CN1C(=O)[C@@H](NC(=O)c2nnc(Cc3ccccc3)[nH]2)COc2cccnc21 | – | – | healthy human, fasted, plasma | oral, 100 mg single dose, geometric mean | – | terminal half-life | 360 min
CN(CCCN1CCN(C(=O)CN2CCN(CC(=O)[O-])CCN(CC(=O)[O-])CCN(CC(=O)[O-])CC2)CC1)c1ccc2nccc(C(=O)NCC(=O)N3CC(F)(F)C[C@H]3C#N)c2c1.[68Ga+3] | – | – | mice, HT-1080.hFAP and HT-1080 wild-type xenografts, heart | iv, 500 pmol, 4 h post injection | – | uptake | 0.1 %IA/g
C[C@@H](Nc1cc(F)cc(F)c1)c1cc(C(=O)N(C)C)cc2c(=O)cc(N3CCOCC3)oc12 | – | refers to: Hypokalemia | advanced solid tumour patients | oral, dose not given, dose expansion | – | related serious adverse events | 0%
O=C(CCCCCCC(=O)Nc1ccc(CC[18F])cc1)NO | – | – | athymic nu/nu male mice, LNCaP xenograft, large intestine | intravenous, 1 h | – | tissue uptake | 4.8 ± 0.9 %ID/g
CCOc1c([C@H](C)n2nc(C)c3c(N)ncnc32)cc(Cl)c(F)c1[C@@H]1CNC(=O)C1 | – | ECG | previously treated B-cell malignancy patients | oral, 10 mg once daily, baseline below thresholds | – | observations with HR ≤100 bpm | 100%
O=S(=O)(c1ccc(-c2ccc3nccc(Nc4ccncn4)c3c2)cc1)N1CCOCC1 | – | – | female BALB/c mice, brain | intraperitoneal, 10 mg/kg, 0.25 h, mean | – | brain concentration | 181 ng/g
N#Cc1ccc2c(c1)[C@H]1CCCN(C(=O)c3ccc4[nH]cnc4c3)[C@H]1C2 | – | – | human, female | 160 mg, end of trial | – | androstenedione level | 5.6 nmol/L
NC1(C(=O)N[C@@H](CCO)c2ccc(Cl)cc2)CCN(c2nc[nH]c3nccc2-3)CC1 | – | – | metastatic CRPC patients | 400 mg b.i.d., grade 3 to 4, treatment-related, added: enzalutamide 160 mg daily | – | incidence of SIRS | 0%
O=C(Nc1nc2cccc(-c3ccc(CN4CCS(=O)(=O)CC4)cc3)n2n1)C1CC1 | – | refers to: pain in extremity | human rheumatoid arthritis patients | oral, 200 mg once daily, 4 weeks, regardless of relatedness | – | treatment-emergent adverse events | 0%
COc1c(N2C[C@@H]3CCCN[C@@H]3C2)c(F)cc2c(=O)c(C(=O)O)cn(C3CC3)c12 | – | – | healthy volunteers | oral, 400 mg single dose, day 5, 1.00 h | – | QTcI change from baseline | -3 ms
COc1ccc(Cc2cnc(N)nc2N)cc1OC | THP-1 | pyroptotic LDH release | – | 2 µM, 40 min, added: LPS then nigericin | – | inhibition | -25.8%
C[C@H]1CN(C(=O)CC#N)[C@]12CCN(c1ncnc3[nH]ccc13)C2 | – | – | healthy adult humans | oral, 12 mg single dose | – | participants with TEAEs | 0%
CCCn1cc(C)c2c(=O)[nH]c(-c3cc(S(=O)(=O)N4CCN(CC)CC4)ccc3OCC)nc21 | – | – | human | – | – | serious adverse events | 0%
COc1cc2nccc(Oc3ccc(NC(=O)c4cc5c(n(-c6ccccc6)c4=O)CCCC5=O)nc3)c2cc1OC | – | – | human, relapsed/refractory AML | oral, dose not given, all dose groups combined | – | TEAEs, drug-related, patients with | 45%

A few entries again:
SMILES | target or system | test | system | setting | how to read | endpoint | result
CCOc1c([C@H](C)n2nc(C)c3c(N)ncnc32)cc(Cl)c(F)c1[C@@H]1CNC(=O)C1 | – | ECG | previously treated B-cell malignancy patients | oral, 10 mg once daily, baseline below thresholds | – | observations with HR ≤100 bpm | 100%
C=CC(=O)N1CCC(c2ccc(C(N)=O)c(-c3ccc(Oc4ccccc4)cc3)n2)CC1 | – | CTCAE 4.03 | patients with relapsed/refractory MCL | oral, 150 mg once daily | – | incidence of grade ≥3 TRAEs | 12.5%
